Assay results from different studies.
Each numbered part is a random draw from the data of one study; scales do not carry over between parts.
Chain of UniProt P49761 (whole entry, looked up): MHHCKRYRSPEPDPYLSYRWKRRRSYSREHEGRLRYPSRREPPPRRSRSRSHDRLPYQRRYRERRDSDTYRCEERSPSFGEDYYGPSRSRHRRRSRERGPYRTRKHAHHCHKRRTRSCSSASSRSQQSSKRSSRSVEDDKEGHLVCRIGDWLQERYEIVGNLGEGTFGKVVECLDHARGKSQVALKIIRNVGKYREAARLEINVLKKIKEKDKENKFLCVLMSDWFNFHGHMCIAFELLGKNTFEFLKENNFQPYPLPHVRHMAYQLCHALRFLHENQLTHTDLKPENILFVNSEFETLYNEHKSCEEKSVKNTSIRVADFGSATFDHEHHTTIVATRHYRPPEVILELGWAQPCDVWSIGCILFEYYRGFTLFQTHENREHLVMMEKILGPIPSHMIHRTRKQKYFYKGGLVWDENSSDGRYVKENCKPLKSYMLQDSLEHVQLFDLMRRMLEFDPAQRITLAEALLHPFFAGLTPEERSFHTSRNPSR
Chain of UniProt Q02750 (whole entry, looked up): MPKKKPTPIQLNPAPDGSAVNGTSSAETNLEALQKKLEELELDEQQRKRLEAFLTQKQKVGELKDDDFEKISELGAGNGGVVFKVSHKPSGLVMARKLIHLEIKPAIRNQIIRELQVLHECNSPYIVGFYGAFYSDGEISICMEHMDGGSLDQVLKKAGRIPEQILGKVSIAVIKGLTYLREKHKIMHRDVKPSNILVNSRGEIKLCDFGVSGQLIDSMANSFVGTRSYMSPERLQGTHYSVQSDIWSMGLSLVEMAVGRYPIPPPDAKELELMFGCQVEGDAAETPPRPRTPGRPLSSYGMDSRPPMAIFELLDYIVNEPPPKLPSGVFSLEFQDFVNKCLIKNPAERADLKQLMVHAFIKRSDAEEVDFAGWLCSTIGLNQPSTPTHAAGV
Chain of UniProt Q13237 (whole entry, looked up): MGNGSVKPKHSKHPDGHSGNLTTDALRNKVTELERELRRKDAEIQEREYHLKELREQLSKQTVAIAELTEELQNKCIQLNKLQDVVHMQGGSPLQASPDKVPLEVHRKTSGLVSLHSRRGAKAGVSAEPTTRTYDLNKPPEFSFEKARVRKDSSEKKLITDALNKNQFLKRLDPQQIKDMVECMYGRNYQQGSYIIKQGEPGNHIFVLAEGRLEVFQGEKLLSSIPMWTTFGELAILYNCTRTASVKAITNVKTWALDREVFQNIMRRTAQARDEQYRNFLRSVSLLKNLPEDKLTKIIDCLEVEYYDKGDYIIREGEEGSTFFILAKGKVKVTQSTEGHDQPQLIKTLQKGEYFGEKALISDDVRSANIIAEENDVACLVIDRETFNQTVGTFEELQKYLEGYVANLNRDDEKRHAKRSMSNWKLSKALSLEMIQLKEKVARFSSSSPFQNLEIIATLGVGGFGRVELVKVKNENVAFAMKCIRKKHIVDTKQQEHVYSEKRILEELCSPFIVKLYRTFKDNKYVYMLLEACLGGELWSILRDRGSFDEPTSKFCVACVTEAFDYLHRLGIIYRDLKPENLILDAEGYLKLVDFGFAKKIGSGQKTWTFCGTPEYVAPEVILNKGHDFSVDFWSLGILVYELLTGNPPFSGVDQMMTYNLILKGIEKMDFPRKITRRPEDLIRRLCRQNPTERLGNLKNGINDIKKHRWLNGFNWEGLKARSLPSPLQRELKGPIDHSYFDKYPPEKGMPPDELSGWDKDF
Chain of UniProt Q9H4B4 (whole entry, looked up): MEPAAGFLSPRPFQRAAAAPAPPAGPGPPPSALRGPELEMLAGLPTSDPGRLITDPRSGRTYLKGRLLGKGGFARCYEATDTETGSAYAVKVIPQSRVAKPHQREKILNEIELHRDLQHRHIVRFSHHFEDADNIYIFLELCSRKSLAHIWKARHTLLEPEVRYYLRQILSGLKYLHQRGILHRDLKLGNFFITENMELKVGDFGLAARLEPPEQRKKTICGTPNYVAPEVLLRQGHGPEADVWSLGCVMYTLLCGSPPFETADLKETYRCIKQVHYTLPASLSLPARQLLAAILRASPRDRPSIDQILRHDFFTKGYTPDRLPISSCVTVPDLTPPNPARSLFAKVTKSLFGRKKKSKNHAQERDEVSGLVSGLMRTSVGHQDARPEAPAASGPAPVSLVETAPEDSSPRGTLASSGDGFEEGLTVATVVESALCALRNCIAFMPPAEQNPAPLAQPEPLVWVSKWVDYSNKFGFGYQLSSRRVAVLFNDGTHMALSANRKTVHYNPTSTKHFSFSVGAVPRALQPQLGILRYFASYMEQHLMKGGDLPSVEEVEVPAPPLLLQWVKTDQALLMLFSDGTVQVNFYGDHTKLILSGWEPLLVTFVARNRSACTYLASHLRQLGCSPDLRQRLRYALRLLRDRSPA
Chain of UniProt Q15759 (whole entry, looked up): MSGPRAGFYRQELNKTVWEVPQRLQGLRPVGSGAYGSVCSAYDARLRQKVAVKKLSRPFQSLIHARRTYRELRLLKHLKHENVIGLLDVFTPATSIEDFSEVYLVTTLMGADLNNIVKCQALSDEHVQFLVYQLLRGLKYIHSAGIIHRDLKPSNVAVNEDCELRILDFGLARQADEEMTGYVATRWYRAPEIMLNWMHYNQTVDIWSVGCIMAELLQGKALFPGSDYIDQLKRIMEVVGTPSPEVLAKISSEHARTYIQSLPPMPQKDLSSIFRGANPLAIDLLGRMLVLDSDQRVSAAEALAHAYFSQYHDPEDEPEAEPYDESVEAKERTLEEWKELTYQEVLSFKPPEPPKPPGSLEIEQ
Chain of UniProt Q8N568 (whole entry, looked up): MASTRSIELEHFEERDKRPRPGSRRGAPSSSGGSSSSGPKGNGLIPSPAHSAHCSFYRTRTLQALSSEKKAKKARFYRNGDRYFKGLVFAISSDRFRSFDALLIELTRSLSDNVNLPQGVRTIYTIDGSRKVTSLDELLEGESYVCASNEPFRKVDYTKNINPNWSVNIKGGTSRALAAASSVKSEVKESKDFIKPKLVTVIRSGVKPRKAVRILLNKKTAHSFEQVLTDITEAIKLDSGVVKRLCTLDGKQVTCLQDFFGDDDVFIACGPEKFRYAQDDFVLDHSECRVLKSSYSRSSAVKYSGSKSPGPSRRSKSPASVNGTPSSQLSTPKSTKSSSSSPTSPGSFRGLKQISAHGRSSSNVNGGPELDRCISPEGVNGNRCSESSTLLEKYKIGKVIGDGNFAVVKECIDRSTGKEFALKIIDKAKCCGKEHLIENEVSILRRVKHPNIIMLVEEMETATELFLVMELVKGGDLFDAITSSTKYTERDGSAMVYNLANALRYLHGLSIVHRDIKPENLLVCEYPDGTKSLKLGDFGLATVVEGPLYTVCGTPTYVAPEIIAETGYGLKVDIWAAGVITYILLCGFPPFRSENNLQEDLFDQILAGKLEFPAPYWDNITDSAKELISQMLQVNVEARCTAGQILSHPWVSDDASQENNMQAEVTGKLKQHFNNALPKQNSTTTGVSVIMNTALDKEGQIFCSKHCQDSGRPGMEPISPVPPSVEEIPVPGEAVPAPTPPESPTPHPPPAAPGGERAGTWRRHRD
Chain of UniProt P0C1S8 (whole entry, looked up): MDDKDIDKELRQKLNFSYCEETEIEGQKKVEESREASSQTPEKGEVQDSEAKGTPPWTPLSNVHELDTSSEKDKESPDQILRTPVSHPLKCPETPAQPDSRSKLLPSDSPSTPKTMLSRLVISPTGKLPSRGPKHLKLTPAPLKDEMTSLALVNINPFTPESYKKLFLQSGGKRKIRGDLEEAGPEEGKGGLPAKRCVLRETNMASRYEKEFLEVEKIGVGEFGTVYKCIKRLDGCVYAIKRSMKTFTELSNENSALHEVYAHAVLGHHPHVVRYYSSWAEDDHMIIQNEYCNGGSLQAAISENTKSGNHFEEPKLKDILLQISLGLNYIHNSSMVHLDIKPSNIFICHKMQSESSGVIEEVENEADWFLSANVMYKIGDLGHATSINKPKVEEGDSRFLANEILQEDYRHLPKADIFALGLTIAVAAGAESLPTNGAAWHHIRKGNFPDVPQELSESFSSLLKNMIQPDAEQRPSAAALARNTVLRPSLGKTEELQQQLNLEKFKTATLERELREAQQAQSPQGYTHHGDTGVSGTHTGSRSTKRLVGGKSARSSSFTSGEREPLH
Chain of UniProt O75914 (whole entry, looked up): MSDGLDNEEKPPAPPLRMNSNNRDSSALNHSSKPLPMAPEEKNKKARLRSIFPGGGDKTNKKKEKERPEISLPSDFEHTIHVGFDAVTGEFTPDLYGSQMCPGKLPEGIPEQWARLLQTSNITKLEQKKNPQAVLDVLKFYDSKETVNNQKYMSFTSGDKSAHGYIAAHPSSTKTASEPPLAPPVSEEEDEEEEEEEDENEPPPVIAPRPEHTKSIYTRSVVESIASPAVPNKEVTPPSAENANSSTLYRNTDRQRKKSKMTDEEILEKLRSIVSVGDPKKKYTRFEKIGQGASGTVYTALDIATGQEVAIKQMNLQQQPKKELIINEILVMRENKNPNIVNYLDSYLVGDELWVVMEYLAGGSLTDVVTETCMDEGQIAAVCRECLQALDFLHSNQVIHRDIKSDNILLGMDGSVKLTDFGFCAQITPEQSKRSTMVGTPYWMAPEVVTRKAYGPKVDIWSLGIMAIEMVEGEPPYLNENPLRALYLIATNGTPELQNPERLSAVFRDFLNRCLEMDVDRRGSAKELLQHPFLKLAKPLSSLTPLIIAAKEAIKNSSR

Study 1
Compound: Fc1ccc(-c2nc3n(c2-c2ccncc2)CCS3)cc1
Effect on: enzyme activity
Mode: inhibitor
Concentration: 0.5 µM
Baseline: control
Measurement: remaining activity
MAP/microtubule affinity-regulating kinase 4 (MARK4, Homo sapiens, UniProt Q96L34): 106%
Serine/threonine-protein kinase PAK 3 (PAK3, Homo sapiens, UniProt O75914): 104%
Serine/threonine-protein kinase PLK3 (PLK3, Homo sapiens, UniProt Q9H4B4): 97.8%
Rho-associated protein kinase 1 (ROCK1, Homo sapiens, UniProt Q13464): 103%
Cyclin-dependent kinase 9, with cyclin K (CDK9, Homo sapiens, UniProt P50750): 102%
Dual specificity mitogen-activated protein kinase kinase 1 (MAP2K1, Homo sapiens, UniProt Q02750): 93.6%
Vascular endothelial growth factor receptor 2 (KDR, Homo sapiens, UniProt P35968): 95.7%
Dual specificity protein kinase CLK3 (CLK3, Homo sapiens, UniProt P49761): 94.4%
Serine/threonine-protein kinase MRCK beta (CDC42BPB, Homo sapiens, UniProt Q9Y5S2): 115%
Serine/threonine-protein kinase DCLK2 (DCLK2, Homo sapiens, UniProt Q8N568): 97.4%
Mitogen-activated protein kinase 1 (MAPK1, Homo sapiens, UniProt P28482): 106%
Mitogen-activated protein kinase 11 (MAPK11, Homo sapiens, UniProt Q15759): 97.2%
cGMP-dependent protein kinase 2 (PRKG2, Homo sapiens, UniProt Q13237): 93.9%
Misshapen-like kinase 1 (MINK1, Homo sapiens, UniProt Q8N4C8): 97.7%

Study 2
Cell line: mouse MPNST tumor cells
Technique: high-content nuclear imaging
Item: cell number
Concentration: 10 µM
Time: 12 h
Notes: mean of 2 replicates
Baseline: plate mean
Reading: higher = more cells
Measurement: nuclei count
Fc1ccc(Nc2nc(-c3ccccc3)cs2)cc1: -1.54 z-score
N=C(N)Nc1ccc(C(=O)Oc2ccc3cc(C(=N)N)ccc3c2)cc1: 1.19 z-score
CC(=Cc1ccc(Cl)cc1)C(C)=NO: 2.13 z-score
CCN1CCC[C@H]1CNC(=O)c1c(OC)ccc(Br)c1OC: 1.99 z-score
O=C(Nc1cc(C(F)(F)F)ccc1O)Nc1cc(C(F)(F)F)ccc1O: -0.954 z-score
CC1(C)O[C@@H]2C[C@H]3[C@@H]4CCC5=CC(=O)CC[C@]5(C)[C@@]4(F)[C@@H](O)C[C@]3(C)[C@]2(C(=O)CCl)O1: 2.44 z-score

Study 3
Target: Beta-1 adrenergic receptor (ADRB1, Homo sapiens, UniProt P08588)
Chain of UniProt P08588 (whole entry, looked up): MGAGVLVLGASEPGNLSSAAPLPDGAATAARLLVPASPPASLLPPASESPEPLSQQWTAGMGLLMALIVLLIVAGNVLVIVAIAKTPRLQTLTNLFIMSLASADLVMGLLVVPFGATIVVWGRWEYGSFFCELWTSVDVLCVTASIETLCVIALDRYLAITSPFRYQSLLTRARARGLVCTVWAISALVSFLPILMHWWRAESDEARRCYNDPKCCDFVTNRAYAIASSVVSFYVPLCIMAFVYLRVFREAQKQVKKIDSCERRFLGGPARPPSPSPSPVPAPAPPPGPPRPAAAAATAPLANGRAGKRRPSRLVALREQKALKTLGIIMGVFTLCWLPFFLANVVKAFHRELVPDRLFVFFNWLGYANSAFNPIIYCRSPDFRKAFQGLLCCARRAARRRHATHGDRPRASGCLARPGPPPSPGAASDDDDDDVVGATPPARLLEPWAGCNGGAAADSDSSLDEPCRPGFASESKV
Mode: agonist
Measurement: EC50
Cc1nn(Cc2ccc(F)cc2)c2sc(C(=O)N(C)Cc3cnn(C)c3)cc12: 28.2 µM
O=[S+]([O-])(N[C@H]1CO[C@H]2[C@@H]1OC[C@@H]2n1nnnc1Oc1cccc(N2CCOCC2)c1)c1cccs1: ≥ 100 µM
Oc1cccc(-c2c3nc(c(-c4cccc(O)c4)c4ccc([nH]4)c(-c4cccc(O)c4)c4nc(c(-c5cccc(O)c5)c5ccc2[nH]5)CC4)C=C3)c1: ≥ 100 µM
Clc1ccccc1N1CCN(C2CCNCC2)CC1: ≥ 100 µM

Study 4
SMILES: CCC(=O)N[C@H]1CC[C@@H](C(=O)N(C)c2ccc(-c3nc4ccccc4o3)cc2)C1
Effect on: cell-free assay
Technique: competition with immobilised ligand
Concentration: 1 µM
Measurement: remaining binding
Cyclin-dependent kinase 16 (CDK16, Homo sapiens, UniProt Q00536): 88%
MAP/microtubule affinity-regulating kinase 3 (MARK3, Homo sapiens, UniProt P27448): 96%
Wee1-like protein kinase 2 (WEE2, Homo sapiens, UniProt P0C1S8): 96%
Microtubule-associated serine/threonine-protein kinase 1 (MAST1, Homo sapiens, UniProt Q9Y2H9): 100%
cAMP-dependent protein kinase catalytic subunit beta (PRKACB, Homo sapiens, UniProt P22694): 100%

Excerpt of the above (study 4):
Cyclin-dependent kinase 16 (CDK16, Homo sapiens, UniProt Q00536): 88%
MAP/microtubule affinity-regulating kinase 3 (MARK3, Homo sapiens, UniProt P27448): 96%
Wee1-like protein kinase 2 (WEE2, Homo sapiens, UniProt P0C1S8): 96%
